Measurements collected from several papers.
Numbered parts are unrelated; each lists some results of a single study. Substitutions count along the parent as printed.

Block 1 — read-out: ligand displacement; technique: radioligand; tested at: 10 µM
Target: 5-hydroxytryptamine receptor 1B (HTR1B, Homo sapiens, UniProt P28222)
UniProt P28222, sequence (whole entry, looked up): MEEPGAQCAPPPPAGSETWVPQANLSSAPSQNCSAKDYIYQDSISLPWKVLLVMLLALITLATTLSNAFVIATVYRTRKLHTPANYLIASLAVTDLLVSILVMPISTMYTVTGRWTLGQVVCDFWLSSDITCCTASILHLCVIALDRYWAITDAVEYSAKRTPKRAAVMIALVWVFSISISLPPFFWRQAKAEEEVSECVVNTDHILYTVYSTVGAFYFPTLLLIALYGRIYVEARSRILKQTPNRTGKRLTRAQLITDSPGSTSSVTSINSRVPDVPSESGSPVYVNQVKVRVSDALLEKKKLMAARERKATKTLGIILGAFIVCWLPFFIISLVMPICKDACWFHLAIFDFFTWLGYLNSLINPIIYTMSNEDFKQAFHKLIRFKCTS
SMILES	inhibition [%]
Cn1cc(Cl)c2c(Oc3c(F)cc(Nc4cc(Cl)nc(N)n4)cc3F)ccnc21	5.3
Cc1cnc(-c2cc(Cl)ccc2F)cc1-n1c(=O)n(CC(N)=O)c2cnccc21	19.5
NS(=O)(=O)c1cc(NC(=O)C2(c3ccccc3Cl)CC2)ccc1Oc1cccc(Cl)c1	4.81
C[C@H](NC(=O)Nc1cc2[nH]ncc2c(CO)n1)c1ccccn1	-11.6
CCOC(=O)c1cc2cc(-c3cc(C(=O)NCc4ccc(C(=O)O)cc4)nn3C)ccc2[nH]1	6.12
CN([C@@H]1CCc2c(CC(=O)O)c3cc(S(C)(=O)=O)ccc3n2C1)S(=O)(=O)c1ccc(F)cc1	2.61

Block 2 — technique: RNA Bind-n-Seq; form: RNA; sample: in vitro; tested at: 1 µM; notes: whole 134-nt RNA, ends assumed; added: 150 mM KCl; reference: input library; reading: higher = stronger binding
Target: Ras GTPase-activating protein-binding protein 1, RRM domain (G3BP1, Homo sapiens, UniProt Q13283)
UniProt Q13283, sequence (whole entry, looked up): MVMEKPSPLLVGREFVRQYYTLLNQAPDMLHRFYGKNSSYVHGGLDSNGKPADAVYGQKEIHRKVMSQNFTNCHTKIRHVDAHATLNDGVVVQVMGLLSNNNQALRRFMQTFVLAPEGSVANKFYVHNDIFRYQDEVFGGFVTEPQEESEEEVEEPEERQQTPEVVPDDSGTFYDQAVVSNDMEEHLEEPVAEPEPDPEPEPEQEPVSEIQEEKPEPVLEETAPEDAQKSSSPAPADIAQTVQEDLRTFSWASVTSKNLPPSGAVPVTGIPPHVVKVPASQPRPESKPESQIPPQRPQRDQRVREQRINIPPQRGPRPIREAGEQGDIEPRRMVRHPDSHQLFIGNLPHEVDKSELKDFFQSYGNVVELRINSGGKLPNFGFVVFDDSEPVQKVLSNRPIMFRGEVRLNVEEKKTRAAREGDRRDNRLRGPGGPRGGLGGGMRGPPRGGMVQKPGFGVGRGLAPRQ
Shared flanks, not repeated: GGGAGUUCUACAGUCCGACGAUC … UGGAAUUCUCGGGUGUCAAGG
Sequence	log2 enrichment
UUAGAAGAAGUGGAAAGGAAAAAACGCCAAAGGGAGUUGGAAAUUGAAGAACGAGAACGGCGUAGAGAGGAAGAGAGAAGACUUGGCGAU	0.2
CUGUGCUACACAUCGUAUGUACCGAAUCGGUUUUUUUGGUUUUUUUGGGGUUUUUUUGGGGAAAGUAUUAUGUUACGCCGUUCGGAUCUG	-0.307
UGGGAGGUGGAUUUUGUUUAUUUUUUUAGCUCAUUUCCAGGGUUGGGAAUUUUUUUUUAAUAUGUGUCAUGAAUAAAGUUGUUUUUGAAA	1.75
GUCCUGUGCUACACAUCGUAUGUACCGAAUCAAAUUUUUUUAAACCCCCAAAUUUAAAAAAGUAUUAUGUUACGCCGUUCGGAUCUGCAC	-0.86
ACCAUGCAGGUGGGCCUCUUUGGGAAGUGGGGCAAGGGGGGGAUAGGGAGGGGGGUAACACUUUGGGAACAGGUGGUCCCAGGUCGUUUC	-0.384
UCAAGUCCUGUGCUACACAUCGUAUGUACCGAAUCGGAAAAAGGUGGAAAAAGGAAAGUAUUAUGUUACGCCGUUCGGAUCUGCACUUCC	-0.125
GUCCUGUGCUACACAUCGUAUGUACCGAAUCGGGCCCCCGGGCCCCCGGCCCCCGGGGAAAGUAUUAUGUUACGCCGUUCGGAUCUGCAC	-0.663
CAAGUCCUGUGCUACACAUCGUAUGUACCGAAUCAAAUUUAAAUUUAAAUUUAAAAAAGUAUUAUGUUACGCCGUUCGGAUCUGCACUUC	-0.345

Block 3 — technique: DHFR PCA, deep sequencing; sample: yeast; added: (+)-ABA 1.4 µM; reference: wild-type fitted maximum; reading: higher = stronger binding
Target: ABI1, truncated, D143A, DHFR fusion (Arabidopsis thaliana)
Notes: methotrexate growth selection, single substitutions
Starting sequence: PYL1, truncated, DHFR fusion (Arabidopsis thaliana); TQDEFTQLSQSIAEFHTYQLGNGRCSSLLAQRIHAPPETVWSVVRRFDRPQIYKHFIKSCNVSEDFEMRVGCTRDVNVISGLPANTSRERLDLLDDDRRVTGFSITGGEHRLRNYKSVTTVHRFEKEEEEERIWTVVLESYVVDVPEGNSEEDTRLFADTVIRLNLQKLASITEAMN
Change	relative binding score
P146L	12.1%
E139V	46.3%
D153N	-3.86%
G81Q	-12.7%
L94W	31.4%
N77F	59%
C72I	33.6%
Y115K	-1.19%

Block 4 — read-out: enzyme activity; action: inhibitor; tested at: 0.5 µM; reference: control
Target: Cyclin-dependent kinase 7 (CDK7, Homo sapiens, UniProt P50613)
UniProt P50613, sequence (whole entry, looked up): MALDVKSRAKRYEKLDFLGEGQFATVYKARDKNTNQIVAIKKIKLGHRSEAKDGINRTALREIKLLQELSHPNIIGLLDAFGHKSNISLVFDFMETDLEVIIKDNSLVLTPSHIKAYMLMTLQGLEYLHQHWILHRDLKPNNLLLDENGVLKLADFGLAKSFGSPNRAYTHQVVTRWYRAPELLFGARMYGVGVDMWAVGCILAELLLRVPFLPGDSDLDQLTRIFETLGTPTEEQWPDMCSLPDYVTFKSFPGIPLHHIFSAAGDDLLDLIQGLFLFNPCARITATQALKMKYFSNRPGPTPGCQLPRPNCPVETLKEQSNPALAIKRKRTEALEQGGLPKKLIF
Compound	remaining activity
CCCCc1c(-c2ccc(O)cc2)[nH]c2nccnc12	88.2%
O=C1Nc2ccc(Br)cc2/C1=C/c1cc2c([nH]1)CCCC2	93.6%
CCCCc1c(-c2ccc(OC)cc2)[nH]c2nccnc12	92.6%
O=C(c1ccccc1)c1ccc(N2CCOCC2)cc1O	106%
CN(C)S(=O)(=O)c1ccc2c(c1)/C(=C/c1cc3c([nH]1)CCCC3)C(=O)N2	76.4%
Cc1ccc(S(=O)(=O)/C=C/C#N)cc1	98.2%
O=C(c1cc2cc(O)ccc2[nH]1)c1cc2cc(O)ccc2[nH]1	93.5%
COc1cc2c(N3CCN(C(=O)Nc4ccc(OC(C)C)cc4)CC3)ncnc2cc1OCCCN1CCCCC1	109%
CCN(CC)CCCCN1c2ccccc2Oc2ccc(Cl)cc21	99%
c1ccc2c(-c3ccncc3)c[nH]c2c1	97%
COc1ccc(COc2ccc(Cc3cnc(N)nc3N)cc2OC)cc1	100%
O=C1NC(=O)c2c1c1c3ccccc3[nH]c1c1[nH]c3cc(Br)ccc3c21	93.1%
c1ccc(-c2n[nH]c3c2oc2ccccc23)cc1	101%
c1cc(-c2cnn3cc(-c4ccc(OCCN5CCCCC5)cc4)cnc23)ccn1	83.7%
COc1cc2c(Nc3ccc(Br)cc3F)ncnc2cc1OCC1CCN(C)CC1	102%
O=Nc1c(-c2c(O)[nH]c3cc(Br)ccc23)[nH]c2ccccc12	79.1%
NC(=O)c1cccc(-c2cc(Nc3ccc(OC(F)(F)F)cc3)ncn2)c1	104%
Clc1ccc(Nc2nnc(Cc3ccncc3)c3ccccc23)cc1	107%

Repeated from above (block 1):
SMILES	inhibition [%]
Cn1cc(Cl)c2c(Oc3c(F)cc(Nc4cc(Cl)nc(N)n4)cc3F)ccnc21	5.3
Cc1cnc(-c2cc(Cl)ccc2F)cc1-n1c(=O)n(CC(N)=O)c2cnccc21	19.5
NS(=O)(=O)c1cc(NC(=O)C2(c3ccccc3Cl)CC2)ccc1Oc1cccc(Cl)c1	4.81
C[C@H](NC(=O)Nc1cc2[nH]ncc2c(CO)n1)c1ccccn1	-11.6
CCOC(=O)c1cc2cc(-c3cc(C(=O)NCc4ccc(C(=O)O)cc4)nn3C)ccc2[nH]1	6.12
CN([C@@H]1CCc2c(CC(=O)O)c3cc(S(C)(=O)=O)ccc3n2C1)S(=O)(=O)c1ccc(F)cc1	2.61
